Experimental data gathered from unrelated publications.
Numbered parts are unrelated; each lists some results of a single study. Several values in a cell are separate wells, animals, samples, runs or records.
Chain of UniProt P41743 (whole entry, looked up): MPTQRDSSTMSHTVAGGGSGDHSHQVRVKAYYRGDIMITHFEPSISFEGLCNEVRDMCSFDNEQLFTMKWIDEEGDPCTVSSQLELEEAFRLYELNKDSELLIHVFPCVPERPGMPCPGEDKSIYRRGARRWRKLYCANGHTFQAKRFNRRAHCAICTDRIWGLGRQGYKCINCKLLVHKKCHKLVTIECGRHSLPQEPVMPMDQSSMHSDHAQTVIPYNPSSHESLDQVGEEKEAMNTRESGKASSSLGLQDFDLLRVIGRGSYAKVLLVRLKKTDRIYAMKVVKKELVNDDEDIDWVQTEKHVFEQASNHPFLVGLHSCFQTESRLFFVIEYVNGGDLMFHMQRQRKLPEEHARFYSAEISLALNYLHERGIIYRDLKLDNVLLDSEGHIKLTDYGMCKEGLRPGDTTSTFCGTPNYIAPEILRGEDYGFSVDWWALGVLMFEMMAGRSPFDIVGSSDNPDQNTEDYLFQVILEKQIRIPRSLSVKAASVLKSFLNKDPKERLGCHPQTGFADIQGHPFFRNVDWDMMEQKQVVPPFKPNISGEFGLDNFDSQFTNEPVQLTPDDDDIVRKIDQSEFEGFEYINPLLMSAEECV
Chain of UniProt P48730 (whole entry, looked up): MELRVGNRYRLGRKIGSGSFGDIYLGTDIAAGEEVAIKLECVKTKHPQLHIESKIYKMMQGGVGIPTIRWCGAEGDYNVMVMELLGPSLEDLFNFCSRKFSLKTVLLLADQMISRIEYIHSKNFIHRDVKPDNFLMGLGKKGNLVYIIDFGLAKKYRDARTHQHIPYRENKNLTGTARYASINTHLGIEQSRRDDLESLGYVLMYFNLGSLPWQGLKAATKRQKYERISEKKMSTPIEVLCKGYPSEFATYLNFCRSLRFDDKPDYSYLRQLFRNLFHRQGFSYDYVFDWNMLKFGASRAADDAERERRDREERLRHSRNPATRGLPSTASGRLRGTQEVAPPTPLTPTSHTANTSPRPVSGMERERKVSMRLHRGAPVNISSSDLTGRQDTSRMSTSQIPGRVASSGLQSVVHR
Chain of UniProt P54646 (whole entry, looked up): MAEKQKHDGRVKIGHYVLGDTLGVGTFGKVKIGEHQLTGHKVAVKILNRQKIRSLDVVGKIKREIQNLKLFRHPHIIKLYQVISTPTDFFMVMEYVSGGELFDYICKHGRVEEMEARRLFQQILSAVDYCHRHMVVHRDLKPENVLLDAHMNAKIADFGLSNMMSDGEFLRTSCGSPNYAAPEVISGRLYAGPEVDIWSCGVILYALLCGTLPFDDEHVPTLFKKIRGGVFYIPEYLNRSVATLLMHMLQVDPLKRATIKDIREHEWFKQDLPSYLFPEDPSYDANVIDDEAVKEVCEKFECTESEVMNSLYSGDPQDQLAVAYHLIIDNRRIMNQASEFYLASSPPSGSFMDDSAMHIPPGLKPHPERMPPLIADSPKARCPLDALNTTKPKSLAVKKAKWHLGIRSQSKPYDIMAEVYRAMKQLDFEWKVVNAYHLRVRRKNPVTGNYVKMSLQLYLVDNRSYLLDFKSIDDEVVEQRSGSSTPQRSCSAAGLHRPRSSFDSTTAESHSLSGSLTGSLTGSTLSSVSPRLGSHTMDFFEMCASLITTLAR
Chain of UniProt O00329 (whole entry, looked up): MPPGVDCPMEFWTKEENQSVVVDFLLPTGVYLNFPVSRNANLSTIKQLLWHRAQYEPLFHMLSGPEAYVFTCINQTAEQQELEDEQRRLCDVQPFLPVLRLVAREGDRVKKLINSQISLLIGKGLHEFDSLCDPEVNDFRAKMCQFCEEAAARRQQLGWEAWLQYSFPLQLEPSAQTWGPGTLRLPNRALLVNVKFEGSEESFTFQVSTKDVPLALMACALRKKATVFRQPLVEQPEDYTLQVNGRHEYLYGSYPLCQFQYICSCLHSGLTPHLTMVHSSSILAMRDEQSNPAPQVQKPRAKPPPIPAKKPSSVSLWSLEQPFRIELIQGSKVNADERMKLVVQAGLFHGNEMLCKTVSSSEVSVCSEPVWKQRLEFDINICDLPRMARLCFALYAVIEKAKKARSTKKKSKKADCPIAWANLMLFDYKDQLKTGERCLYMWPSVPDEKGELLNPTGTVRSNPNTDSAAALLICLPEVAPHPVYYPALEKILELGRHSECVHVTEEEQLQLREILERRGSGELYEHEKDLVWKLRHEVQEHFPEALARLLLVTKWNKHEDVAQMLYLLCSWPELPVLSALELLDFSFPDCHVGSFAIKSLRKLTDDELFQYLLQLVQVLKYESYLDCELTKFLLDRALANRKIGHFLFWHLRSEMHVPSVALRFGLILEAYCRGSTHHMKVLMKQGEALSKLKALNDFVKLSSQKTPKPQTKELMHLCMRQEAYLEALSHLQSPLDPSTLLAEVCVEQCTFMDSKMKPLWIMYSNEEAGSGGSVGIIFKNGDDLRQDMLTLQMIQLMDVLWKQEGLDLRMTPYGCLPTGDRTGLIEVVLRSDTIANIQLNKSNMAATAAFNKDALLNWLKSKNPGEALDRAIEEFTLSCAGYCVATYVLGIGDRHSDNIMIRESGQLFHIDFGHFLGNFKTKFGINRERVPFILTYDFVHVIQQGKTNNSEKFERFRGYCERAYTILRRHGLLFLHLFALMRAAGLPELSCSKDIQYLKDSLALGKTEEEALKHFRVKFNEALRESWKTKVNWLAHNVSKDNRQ

Series 1 — read-out: cell-free assay; method: competition with immobilised ligand; tested at: 0.1 µM
Structure (SMILES): CS(=O)(=O)N1CCCC(NC(=O)[C@H](CCC2CCCCC2)NC(=O)c2ccc(CNc3ncnc4c3nnn4-c3ccccc3)cc2)C1 (some centres unmarked)
For AKT3 (Homo sapiens, UniProt Q9Y243): remaining binding read 86%.
CSNK1D (Homo sapiens, UniProt P48730) — remaining binding: 96%.
It gave 90% for remaining binding (STK25 (Homo sapiens, UniProt O00506)).
It gave 100% for remaining binding (PRKCI (Homo sapiens, UniProt P41743)).
For PIK3CD (Homo sapiens, UniProt O00329): remaining binding read 91%.
It gave 100% for remaining binding (PRKAA2 (Homo sapiens, UniProt P54646)).

Series 2 — read-out: enzyme activity; mode: inhibitor; tested at: 0.5 µM; reference: control
Target: Homeodomain-interacting protein kinase 3 (HIPK3, Homo sapiens, UniProt Q9H422)
Chain of UniProt Q9H422 (whole entry, looked up): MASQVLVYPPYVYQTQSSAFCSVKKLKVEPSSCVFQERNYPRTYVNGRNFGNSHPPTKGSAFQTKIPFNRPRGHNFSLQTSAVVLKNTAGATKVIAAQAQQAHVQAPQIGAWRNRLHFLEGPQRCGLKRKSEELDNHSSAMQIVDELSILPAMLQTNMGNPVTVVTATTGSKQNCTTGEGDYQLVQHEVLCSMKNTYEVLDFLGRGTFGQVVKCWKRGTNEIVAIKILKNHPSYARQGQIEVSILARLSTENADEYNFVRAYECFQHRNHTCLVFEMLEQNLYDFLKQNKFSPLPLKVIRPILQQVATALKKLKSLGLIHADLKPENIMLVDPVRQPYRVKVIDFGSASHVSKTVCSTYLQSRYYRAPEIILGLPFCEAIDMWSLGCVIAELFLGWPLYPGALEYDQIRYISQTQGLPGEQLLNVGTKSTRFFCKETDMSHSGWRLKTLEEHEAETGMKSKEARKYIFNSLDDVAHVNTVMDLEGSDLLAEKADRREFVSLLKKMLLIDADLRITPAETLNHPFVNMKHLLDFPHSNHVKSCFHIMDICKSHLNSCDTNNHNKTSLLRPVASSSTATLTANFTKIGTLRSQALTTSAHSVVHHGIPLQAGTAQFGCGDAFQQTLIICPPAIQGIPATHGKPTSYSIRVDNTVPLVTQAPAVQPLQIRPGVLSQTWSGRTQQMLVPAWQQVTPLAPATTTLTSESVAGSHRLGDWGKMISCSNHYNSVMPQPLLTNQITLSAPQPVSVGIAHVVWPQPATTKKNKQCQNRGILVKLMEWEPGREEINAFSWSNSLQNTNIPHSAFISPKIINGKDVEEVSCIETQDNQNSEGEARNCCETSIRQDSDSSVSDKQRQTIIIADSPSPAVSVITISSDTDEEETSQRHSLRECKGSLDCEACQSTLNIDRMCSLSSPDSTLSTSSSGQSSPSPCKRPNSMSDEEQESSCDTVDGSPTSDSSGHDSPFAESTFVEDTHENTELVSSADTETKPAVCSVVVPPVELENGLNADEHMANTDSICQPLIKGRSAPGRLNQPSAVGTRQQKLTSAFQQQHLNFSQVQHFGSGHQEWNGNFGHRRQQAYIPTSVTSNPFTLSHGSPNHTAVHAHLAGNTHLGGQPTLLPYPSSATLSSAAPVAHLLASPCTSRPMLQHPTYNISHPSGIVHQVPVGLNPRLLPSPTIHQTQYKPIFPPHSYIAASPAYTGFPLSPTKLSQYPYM
For `O=C(Nc1cccc(Nc2cc(Nc3cccc(C(F)(F)F)c3)ncn2)c1)C1CC1`, the remaining activity was 97%.
With `Oc1ccc(-c2nc(-c3ccncc3)c(-c3ccc(F)cc3)[nH]2)cc1` the remaining activity was 98.3%.
`Nc1[nH]nc2nc3ccccc3nc12` has a remaining activity of 97.4%.
The remaining activity of `COc1cc2nccc(Oc3ccc(NC(=S)NC(=O)c4ccccc4C)cc3)c2cc1OC` is reported as 95.2%.
With `CO[C@H]1C[C@@H]2CC[C@@H](C)[C@@](O)(O2)C(=O)C(=O)N2CCCC[C@H]2C(=O)O[C@H]([C@H](C)C[C@@H]2CC[C@@H](O)[C@H](OC)C2)CC(=O)[C@H](C)/C=C(\C)[C@@H](O)[C@@H](OC)C(=O)[C@H](C)C[C@H](C)/C=C/C=C/C=C/1C` the remaining activity was 107%.
For `CCOC(=O)c1c(C)[nH]c(/C=C2\C(=O)Nc3ccccc32)c1C`, the remaining activity was 94.5%.
`Cc1ccc(NC(=O)c2ccc(CN3CCN(C)CC3)cc2)cc1Nc1nc(-c2cccnc2)cs1` has a remaining activity of 101%.
The remaining activity of `Nc1ccc2ncnc(NCCc3ccc(Oc4ccccc4)cc3)c2c1` is reported as 98.6%.
The remaining activity of `O=C(O)c1ccc2c3c1cccc3c(=O)n1c3ccccc3nc21` is reported as 103%.
`COc1ccc(C(=O)Nc2sc3c(c2C(N)=O)CCCC3)cc1OC` gave a remaining activity of 105%.
`Cc1nc(-c2ccccc2)c(-c2ccncc2)o1` has a remaining activity of 107%.
`O=C1NC(=O)C(c2cn(CCCO)c3ncccc23)=C1c1cnccn1` gave a remaining activity of 89.2%.
`CC(C)[C@H](CO)Nc1nc(Nc2cc(N)cc(Cl)c2)c2ncn(C(C)C)c2n1` has a remaining activity of 99.4%.
`O=S(=O)(c1cccc2cnccc12)N1CCCNCC1` has a remaining activity of 107%.

Series 3 — species: human; medium: plasma; route: oral
Compound: COc1ccc(-c2c(Nc3ccccn3)[nH]c3c(C4=CCCCC4)c(-c4ccccc4)nn3c2=O)cc1
The Cmax was 12100 ng/mL (LC-MS/MS non-compartmental; 200 mg twice daily, cycle 1).
The Cmax was 1730 ng/mL and 1780 ng/mL (LC-MS/MS; 50 mg once daily).
For 200 mg twice daily: Cmax read 13800 ng/mL and 15000 ng/mL.

Series 4 — method: competitive binding panel; tested at: 1 µM; reference: vehicle
Structure (SMILES): CN1CCN(C(=O)c2ccc(NC(=O)Nc3ccc(N(C)c4ccnc(Nc5ccc(CS(C)(=O)=O)cc5)n4)cc3)cc2)CC1
It gave 79% for remaining binding (EPHA3 (Homo sapiens, UniProt P29320)).
EGFR (Homo sapiens, UniProt P00533, del752-759) — remaining binding: 100%.
For PKMYT1 (Homo sapiens, UniProt Q99640): remaining binding read 96%.
It gave 1.5% for remaining binding (ROCK2 (Homo sapiens, UniProt O75116)).
The remaining binding was 100% (STK32B (Homo sapiens, UniProt Q9NY57); item: YANK2).
It gave 54% for remaining binding (CLK2 (Homo sapiens, UniProt P49760)).

A few entries again (series 4):
It gave 54% for remaining binding (CLK2 (Homo sapiens, UniProt P49760)).
EGFR (Homo sapiens, UniProt P00533, del752-759) — remaining binding: 100%.
